# Measured values gathered from unrelated publications.
# Compare with care: the assays were run in different laboratories. ± gives the spread as reported.
SMILES,test system,conditions,how to read,quantity,value
CCCC[C@H](NC(=O)COCCOCCNC(=O)CN1CCN(CC(=O)O)CCN(CC(=O)O)CC1)C(=O)N[C@H]1CC(=O)NCCCC[C@@H](C(N)=O)NC(=O)[C@H](Cc2c[nH]c3ccccc23)NC(=O)[C@H](CCCNC(=N)N)NC(=O)[C@@H](Cc2ccccc2)NC(=O)[C@H](Cc2c[nH]cn2)NC1=O [copper-64 labelled],"C57 mice, liver","intravenous, 0.37 MBq, 4 h",,tissue uptake,1.95 ± 0.43 %ID/g
CCCC[C@H](NC(=O)[C@H](CC(N)=O)NC(=O)[C@H](CCCNC(=N)N)NC(=O)[C@@H](NC(=O)CNC(=O)[C@H](C)NC(=O)[C@H](CCCCNC(=O)CCC(=O)O[C@@H](C(=O)O[C@H]1C[C@@]2(O)[C@@H](OC(=O)c3ccccc3)[C@@H]3[C@]4(OC(C)=O)CO[C@@H]4C[C@H](O)[C@@]3(C)C(=O)[C@H](O)C(=C1C)C2(C)C)[C@@H](NC(=O)OC(C)(C)C)c1ccccc1)NC(=O)[C@H](C)NC(=O)[C@H](CCCNC(=N)N)NC(=O)[C@@H](NC(=O)CNC(C)=O)C(C)C)C(C)C)C(=O)N[C@@H](Cc1ccccc1)C(=O)N[C@@H](CCCCNC(=O)CCC(=O)O[C@@H](C(=O)O[C@H]1C[C@@]2(O)[C@@H](OC(=O)c3ccccc3)[C@@H]3[C@]4(OC(C)=O)CO[C@@H]4C[C@H](O)[C@@]3(C)C(=O)[C@H](O)C(=C1C)C2(C)C)[C@@H](NC(=O)OC(C)(C)C)c1ccccc1)C(=O)N[C@@H](CO)C(=O)N[C@@H](CCC(=O)O)C(=O)N[C@@H](CO)C(=O)N[C@@H](Cc1ccc(O)cc1)C(=O)O,"CD-1 mouse, plasma","intravenous, 50 mg/kg, single dose",,AUC,569 µM·h
CCCCCCCCCCCCCCCC(=O)NCCCC[C@H](NC(=O)[C@H](CSCC(=O)NCc1cn(CCOc2ccc(C3=C4C(C)=C(I)C(C)=[N+]4[B-](F)(F)n4c(C)c(I)c(C)c43)cc2)nn1)NC(=O)c1ccc(-c2nnc(C)nn2)cc1)C(=O)N[C@@H](CCCNC(=N)N)C(=O)N[C@@H](CCCNC(=N)N)C(=O)N[C@@H](CCCNC(=N)N)C(=O)N[C@@H](CCCNC(=N)N)C(N)=O,,"1 µM, added: DPBF, 525 nm light","baseline: rose bengal, erythrosine B",singlet oxygen quantum yield,0.55
C=C1CC[C@H](OCCCNC(=O)CCOCCOCCOCCOCCOCCOCCOCCOCCOCCOCCOCCOCCOCCOCCOCCOCCOCCOCCOCCOCCOCCOCCOCCOCCOCCOCCOCCOCCOCCOCCOCCOCCOCCOCCOCCOCCNC(=O)CCN2C(=O)CC(SC[C@H](NC(=O)[C@H](Cc3ccccc3)NC(=O)[C@H](CC(N)=O)NC(=O)[C@H](Cc3c[nH]cn3)NC(=O)[C@@H](NC(=O)[C@H](CC(=O)O)NC(=O)[C@H](CCC(N)=O)NC(=O)[C@H](CC(C)C)NC(=O)[C@H](CCCCN)NC(=O)[C@H](CCCCN)NC(=O)[C@H](CCCNC(=N)N)NC(=O)[C@H](CC(C)C)NC(=O)[C@H](Cc3c[nH]c4ccccc34)NC(=O)[C@H](CCC(=O)O)NC(=O)[C@@H](NC(=O)[C@H](CCCNC(=N)N)NC(=O)[C@H](CCC(=O)O)NC(=O)[C@H](CCSC)NC(=O)[C@H](CO)NC(=O)[C@H](CC(N)=O)NC(=O)[C@H](CC(C)C)NC(=O)[C@H](Cc3c[nH]cn3)NC(=O)[C@H](CCCCN)NC(=O)CNC(=O)[C@H](CC(C)C)NC(=O)[C@H](CC(N)=O)NC(=O)[C@H](Cc3c[nH]cn3)NC(=O)[C@H](CCSC)NC(=O)[C@H](CC(C)C)NC(=O)[C@H](CCC(N)=O)NC(=O)[C@@H](NC(=O)[C@H](CCC(=O)O)NC(=O)[C@H](CO)NC(=O)[C@@H](NC(=O)[C@@H](N)CO)C(C)C)[C@@H](C)CC)C(C)C)C(C)C)C(N)=O)C2=O)C/C1=C/C=C1\CCC[C@]2(C)[C@@H]([C@H](C)CCCC(C)(C)O)CC[C@@H]12 (some centres unmarked),cynomolgus monkey,"subcutaneous, 20 µg/kg every other day, 21 days",,Cmax,38.1 ng/mL
N=C(N)NCCC[C@@H]1NC(=O)[C@H](CCCCNC(=O)CNC(=O)CNC(=O)CNC(=O)CC[C@H](NC(=O)CNC(=O)CNC(=O)CNC(=O)CN2CCN(CC(=O)O)CCN(CC(=O)O)CCN(CC(=O)O)CC2)C(=O)NCC(=O)NCC(=O)NCC(=O)NCCCC[C@@H]2NC(=O)[C@@H](Cc3ccccc3)NC(=O)[C@H](CC(=O)O)NC(=O)CNC(=O)[C@H](CCCNC(=N)N)NC2=O)NC(=O)[C@@H](Cc2ccccc2)NC(=O)[C@H](CC(=O)O)NC(=O)CNC1=O [indium-111 labelled],"female athymic nu/nu mice, muscle","intravenous, 0.5 h",,tissue uptake,1.33 ± 0.24 %ID/g
Cc1cc(-c2ccc(NC(=O)[C@H](CCCCNC(=O)CCOCCOCCC(=O)N[C@H](Cc3ccccc3)C(=O)N[C@H]3CSSC[C@@H](C(=O)N[C@H](C(=O)O)[C@@H](C)O)NC(=O)[C@H]([C@@H](C)O)NC(=O)[C@H](CCCCN)NC(=O)[C@@H](Cc4c[nH]c5ccccc45)NC(=O)[C@H](Cc4ccc(O)cc4)NC3=O)NC(=O)CN3CCN(CC(=O)O)CCN(CC(=O)O)CCN(CC(=O)O)CC3)c(C)c2)ccc1N=Nc1ccc2c(S(=O)(=O)O)cc(S(=O)(=O)O)c(N)c2c1O [lutetium-177 labelled],"patients with metastatic neuroendocrine tumours, all metastatic lesions",,baseline: compound over 177Lu-EB-TATE,residence time ratio,2.5 fold
N=C(N)NCCC[C@@H]1NC(=O)[C@H](CCCCNC(=O)CNC(=O)CNC(=O)CNC(=O)CC[C@H](NC(=O)CNC(=O)CNC(=O)CNC(=O)CC[C@H](NC(=O)CN2CCN(CC(=O)O)CCN(CC(=O)O)CCN(CC(=O)O)CC2)C(=O)NCC(=O)NCC(=O)NCC(=O)N[C@@H](CCC(=O)NCC(=O)NCC(=O)NCC(=O)NCCCC[C@@H]2NC(=O)[C@@H](Cc3ccccc3)NC(=O)[C@H](CC(=O)O)NC(=O)CNC(=O)[C@H](CCCNC(=N)N)NC2=O)C(=O)NCC(=O)NCC(=O)NCC(=O)NCCCC[C@@H]2NC(=O)[C@@H](Cc3ccccc3)NC(=O)[C@H](CC(=O)O)NC(=O)CNC(=O)[C@H](CCCNC(=N)N)NC2=O)C(=O)NCC(=O)NCC(=O)NCC(=O)NCCCC[C@@H]2NC(=O)[C@@H](Cc3ccccc3)NC(=O)[C@H](CC(=O)O)NC(=O)CNC(=O)[C@H](CCCNC(=N)N)NC2=O)NC(=O)[C@@H](Cc2ccccc2)NC(=O)[C@H](CC(=O)O)NC(=O)CNC1=O [indium-111 labelled],"female athymic nu/nu mice, lungs","intravenous, 24 h",,tissue uptake,1.51 ± 0.22 %ID/g
CCCC[C@H](NC(=O)CCCCCCCNC(=O)CN1CCN(CC(=O)O)CCN(CC(=O)O)CC1)C(=O)N[C@H]1CC(=O)NCCCC[C@@H](C(N)=O)NC(=O)[C@H](Cc2c[nH]c3ccccc23)NC(=O)[C@H](CCCNC(=N)N)NC(=O)[C@@H](Cc2ccccc2)NC(=O)[C@H](Cc2c[nH]cn2)NC1=O [copper-64 labelled],"C57 mice, brain","intravenous, 0.37 MBq, 4 h",,tissue uptake,0.02 %ID/g

# Excerpt of the above:
SMILES,test system,conditions,how to read,quantity,value
Cc1cc(-c2ccc(NC(=O)[C@H](CCCCNC(=O)CCOCCOCCC(=O)N[C@H](Cc3ccccc3)C(=O)N[C@H]3CSSC[C@@H](C(=O)N[C@H](C(=O)O)[C@@H](C)O)NC(=O)[C@H]([C@@H](C)O)NC(=O)[C@H](CCCCN)NC(=O)[C@@H](Cc4c[nH]c5ccccc45)NC(=O)[C@H](Cc4ccc(O)cc4)NC3=O)NC(=O)CN3CCN(CC(=O)O)CCN(CC(=O)O)CCN(CC(=O)O)CC3)c(C)c2)ccc1N=Nc1ccc2c(S(=O)(=O)O)cc(S(=O)(=O)O)c(N)c2c1O [lutetium-177 labelled],"patients with metastatic neuroendocrine tumours, all metastatic lesions",,baseline: compound over 177Lu-EB-TATE,residence time ratio,2.5 fold
